Results gathered from unrelated publications.
A part holds a random share of what one study measured.

Series 1 — Molecule: REASKSRVQLFKDDPM; read-out: yeast growth; technique: competitive growth deep sequencing; molecule type: peptide; setting: peptide tiling library; direction: direction not given
| tested on | test system | enrichment score |
| --- | --- | --- |
| human cyclin A2-Cln2 fusion | Saccharomyces cerevisiae | 0.918 |
| Saccharomyces cerevisiae | unfused Cln2 | -0.355 |
| human cyclin D2-Cln2 fusion | Saccharomyces cerevisiae | -0.65 |
| human cyclin B3-Cln2 fusion | Saccharomyces cerevisiae | -1.51 |
| human cyclin D3-Cln2 fusion | Saccharomyces cerevisiae | -1.39 |
| human cyclin B2-Cln2 fusion | Saccharomyces cerevisiae | 0.0591 |

Series 2 — technique: competition protein-binding microarray; molecule type: double-stranded DNA, one strand shown; matrix: in vitro; concentration: 2 µM; with: Cbf1 competitor, 0.05 µM; direction: higher = stronger binding
Target: Phosphate system positive regulatory protein PHO4, full length, GST-tagged (PHO4, Saccharomyces cerevisiae, UniProt P07270, residues 1-312)
Setting: whole 60-bp probe, lowest competitor level
Target sequence (chain): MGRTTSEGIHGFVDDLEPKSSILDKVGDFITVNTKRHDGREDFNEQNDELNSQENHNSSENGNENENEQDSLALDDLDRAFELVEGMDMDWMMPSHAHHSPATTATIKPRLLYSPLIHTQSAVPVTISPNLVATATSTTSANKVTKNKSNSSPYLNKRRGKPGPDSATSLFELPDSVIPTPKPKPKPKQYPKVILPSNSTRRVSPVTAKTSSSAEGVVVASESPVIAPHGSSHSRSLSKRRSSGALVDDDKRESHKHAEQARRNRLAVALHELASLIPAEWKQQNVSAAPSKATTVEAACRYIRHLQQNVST
| Sequence | fluorescence intensity [a.u.] |
| --- | --- |
| CTTCTGTAAATTTGAATAGTGGGTGGACGCGCCCCGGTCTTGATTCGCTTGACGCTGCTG | 4430 |
| CATCGTACAGGGGTTCATGTGCTGGTGCAGTAATTCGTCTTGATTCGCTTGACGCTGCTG | 6840 |
| CTAACGAAGGTTTGTCTTGTGGGTGACAAGCCAAGTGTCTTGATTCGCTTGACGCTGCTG | 4190 |
| GGAGGCTTTGCGTCCCACGTGAGGCTTCATGAACAAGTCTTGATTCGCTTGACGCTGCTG | 15100 |
| GAGTGTTGTTGGGCGCACATGTCGATTTCATAATAGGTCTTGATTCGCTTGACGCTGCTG | 13600 |
| TGCGCAACAACTTGGAGTGTGGGTGTATGTCTAGAAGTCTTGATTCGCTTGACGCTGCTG | 5770 |
| CTTCTGTAAATTTTTCACGTGTTTTGACGCGCCCCGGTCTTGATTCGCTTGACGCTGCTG | 12600 |
| CTTTCCCGATCTTTACACGTGTTTTTAGCACATTTGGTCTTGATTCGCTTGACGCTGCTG | 18600 |
| AGGGCTGAGGCAGCGCACGTGTGAGCGCCGCTGAGGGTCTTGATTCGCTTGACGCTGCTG | 17100 |
| AAGGCCACTGTTTATATCGTGCGATGGCTGGCAGGGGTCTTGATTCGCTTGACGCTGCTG | 6470 |
| CGTCCTAGTGATTGCATAGTGGGTGCCATGAGGAAGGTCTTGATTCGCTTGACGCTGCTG | 6730 |
| CCTACCGCTTCTCCACACGTTTCTTAGATATGCGCGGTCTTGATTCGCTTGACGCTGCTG | 12200 |
| TATGTATGCCTATTTCACATGTTACTAACTGAAGACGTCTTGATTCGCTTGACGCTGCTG | 7270 |
| TGCGCAACAACTTGTCACCCTACTTTATGTCTAGAAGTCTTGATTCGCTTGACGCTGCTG | 3560 |
| CTAACGAAGGTTTGTCACGCGACTTACAAGCCAAGTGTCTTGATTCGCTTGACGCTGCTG | 8230 |
| GGATTAATTGCGTATCAGCTGACAGAGGTAACAAAGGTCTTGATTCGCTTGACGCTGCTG | 3870 |
| TTATAAGGTCGTTACTATCTTTATTGCAGTTAACAGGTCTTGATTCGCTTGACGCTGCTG | 3370 |
| AAATTACTAAGTTGACCCGTGGGTGACGCCGTATGAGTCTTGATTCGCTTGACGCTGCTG | 9170 |
| CGAGAATCAGGCACCCGCGTGTGAACGGCGTCATTCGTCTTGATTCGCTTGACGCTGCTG | 6930 |

Series 3 — technique: RNA Bind-n-Seq; molecule type: RNA; matrix: in vitro; concentration: 365 nM; reference: no-protein control; direction: higher = stronger binding
Target: RNA binding protein fox-1 homolog 2, RRM domain, GST-SBP tag (RBFOX2, Homo sapiens, UniProt O43251-10, residues 100-194)
Setting: natural RNA segment, single round, ends assumed
Construct (chain): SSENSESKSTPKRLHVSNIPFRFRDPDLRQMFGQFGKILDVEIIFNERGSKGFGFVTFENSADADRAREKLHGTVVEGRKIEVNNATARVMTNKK
| Sequence | RBNS enrichment (R) |
| --- | --- |
| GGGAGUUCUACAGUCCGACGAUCAGGUGGAAGAGGAGAACUGGCUCCCCACAGUUGUCCCCUGACCCUCACCCCUAACCCCCAAUCACAAAGAAAGGUAAUAAAAAUAUAAAUUCCAAGGAUUAGGAAAAGUGUGGAAUUCUCGGGUGCCAA | 0.461 |
| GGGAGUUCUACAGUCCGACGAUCUCAGAAGCAAGGACUCAAAAAGCAAAGGUGCACGGCGAGGCCACGAAGCCCACGCCAGCCCGGGGAUGGAGCAUGUAUGUAUUAUUUAUCUGCUGGAGUUCUACGUUUUUUGGAAUUCUCGGGUGCCAA | 2.28 |
| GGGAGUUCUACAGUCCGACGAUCUACUAAAAGGUUCAUUGGUUCCAAUCACAGCUCAUAGGUAGAGCAAAGAAAGGGUGGAUGGAUUGAAAAGAUUAGCCUCUGUCUCGGUGGCAGGUUCCCACCUCGCAAGCUGGAAUUCUCGGGUGCCAA | 0.479 |
| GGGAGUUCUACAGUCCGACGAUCAAGGUAUGUAUCCUGCAGUAGUUAAGCCCUUAAAUAAUUGGGAGUUGGGAAAUCGGAAUCAAAGUAUUGGUGCCAGCUCACUGAAGAUCUGAUUGGGUCAACAGUUGAUUUGGAAUUCUCGGGUGCCAA | 2.41 |
| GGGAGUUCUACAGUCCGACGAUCAGACAACAGUGCGGGAGUCCUGAGUGCUGGCUGUGCAGCCAGUUAAGUGUUCAUGUUCUAGUGAGCACGGGCUUGUCAAGGAGCAAAACACUAGAAUAAUUGAGCAGAGGUGGAAUUCUCGGGUGCCAA | 6.07 |
| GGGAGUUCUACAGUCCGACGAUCGCUAAGAUAUUUUCCAAUCAGUCCCCUUUGUAUUAGUGGGGCAUUUGUGGUUAGUUUGAAAAACAGACAUGGAUAAACUAAAAUGCUUCAUACUUUAUAAGUAAAGCGCUUGGAAUUCUCGGGUGCCAA | 0.454 |
| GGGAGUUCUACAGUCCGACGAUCCAUUUGUAGUUGAGCGGGGGGUUUGGUUUGCUUUGGUUUAUAUUUUUUCAGUUGUUUGUUUUUGCUUGUUAUAUUAAGCAGAAAUCCUGCAAUGAAAGGUACUAUAUUUGUGGAAUUCUCGGGUGCCAA | 1.3 |
| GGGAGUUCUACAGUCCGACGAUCAAAGGCCCUGCGUGGUCAGGCCUGGUUCUGUGACCUGGAAGGUGACAAGCCAUCCAUCCCCCAUGGGAGAGGAGACAGUGUGGCAUCUGGGCCCAGCCCAGGGUCUGACUUGGAAUUCUCGGGUGCCAA | 0.189 |
| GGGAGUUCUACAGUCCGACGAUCAAAUGUCGACUCAGCUAACCAUAUGUCCAGGUUGCUGCAGAGUUUCUUUCAAAUCUGAGUGUUGCCUGCUGAACUCGGAGGGGAGUUUGGAGAAAUUUUAGACAGCAGCUUGGAAUUCUCGGGUGCCAA | 7.7 |
| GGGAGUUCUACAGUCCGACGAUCCCUCCUCAGUGUUCCACAAGCUUCAGGUCAUCAGGUCGGUCCAACUGAAGGCAUGAAAAUCAAGUGUUCCCUGGAGUUUUGAAGCGAAGAUUCAGGGACAAGUUGAAAGGUGGAAUUCUCGGGUGCCAA | 0.755 |
| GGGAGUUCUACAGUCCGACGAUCGGCCAUCUUACGAUACGGCUUGGACUCUGAUCUCAACUGCAAGAUUGCCCAGCUGCCCUUGACAGGAAGUAUGAGCAUCAUCUUCUUCCUGCCCCUGACCGUGACCCAGAUGGAAUUCUCGGGUGCCAA | 0.985 |
| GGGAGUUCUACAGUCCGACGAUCCUGAGGCCAGAUGAUGCUAAAGCAGCUUGUGAGCCAAAUGAUCUGGGGUCUCCCCCAACAUUGUUGCUCUUUUAAACAAAUUGAAUUCUUUUUUCAAGGCUUAAAUUUUUUGGAAUUCUCGGGUGCCAA | 0.727 |

Series 4 — technique: protein binding microarray; molecule type: double-stranded DNA, one strand shown; matrix: in vitro; concentration: not given; reference: not given; direction: higher = stronger binding
Target: Histone acetyltransferase KAT6A, winged helix 1, GST fusion (KAT6A, Homo sapiens, UniProt Q92794, residues 1-85)
Setting: 8-mer, flanks averaged, mean of 2 arrays, mostly near background
Target sequence (chain): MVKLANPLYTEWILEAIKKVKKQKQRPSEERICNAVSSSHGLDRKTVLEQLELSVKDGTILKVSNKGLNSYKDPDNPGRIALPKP
| Sequence | E-score |
| --- | --- |
| AACCATCC | 0.0572 |
| CGGATCAA | 0.0637 |
| CAACGCTA | 0.101 |
| GACGTTAA | -0.0475 |
| ATGCGTTA | 0.103 |
| ACCATGCA | -0.0593 |
| AAAAACTA | 0.0135 |
| ATAGTAGG | -0.0158 |
| CCGTCCTA | 0.19 |
| ATCCGGTA | -0.0156 |
| ATAGAAGA | -0.035 |
| CAAATAAC | -0.0639 |
| CCGGAGGC | 0.0353 |
| CTTTCCTA | -0.0157 |
| CAAATTGG | -0.168 |
| CGGACGGA | 0.278 |
| ACGTCCAG | -0.0489 |
| CTCAGACC | -0.114 |
| ATATTTTA | -0.121 |
| ACCCTGGG | -0.135 |
| CGTTGCTC | 0.131 |
| CCGCCGAA | 0.381 |
| GTGAAGCA | -0.0893 |
| ATTACGCA | 0.203 |
| CTGTCAAC | -0.162 |

Excerpt of the above (series 4):
| Sequence | E-score |
| --- | --- |
| ATGCGTTA | 0.103 |
| ATATTTTA | -0.121 |
| CCGTCCTA | 0.19 |
